# Measurements collected from several papers.
# Protocols differ between the studies behind these lines. Values joined by “and” are separate records of one study, mostly repeats; a detail may differ. Numbers after ± are the reported error.
# rep main protease: Replicase polyprotein 1ab, main protease (rep, Severe acute respiratory syndrome coronavirus 2, UniProt P0DTD1)
# Spike glycoprotein: Spike glycoprotein (Severe acute respiratory syndrome coronavirus 2, UniProt P0DTC2)
SMILES,target or system,test,test system,conditions,scale,endpoint,result
CCOP(=S)(OCC)Oc1nc(Cl)c(Cl)cc1Cl,rat CYP2C,"tolbutamide hydroxylation, non-competitive inhibitor","rat Sprague-Dawley, liver microsomes","30 min, pH 7.4, added: tolbutamide 1 to 10 mM",,Ki,84.8 ± 19.4 µM
O=c1oc2cc(O)cc(O)c2c2oc3cc(O)c(O)cc3c12,rep main protease,"reporter gene (mKate2), inhibitor",,20 µM,,inhibition,-0.428%
C#Cc1cncc(C(=O)N2CCC3(CC2)CN(C(=O)[C@H]2CCC[C@@H]2O)Cc2ccccc2O3)c1,rep main protease,"enzyme activity, inhibitor",,"5 µM, run 2",,inhibition,10.8%
CCc1c(C(=O)C(N)=O)c2c(OCC(=O)O)cccc2n1Cc1ccccc1,Daboia russelii venom phospholipase A2,"enzyme activity, inhibitor",KL population,"0.1 µM, added: NOB substrate",baseline: venom alone,remaining activity,75.4% and 74.1% and 76.2%
CCc1ccccc1NC(=O)CSC(=O)NNC(=O)[C@H](Cc1c[nH]c2ccccc12)NC(=O)OC(C)(C)C,rep main protease,"viral replication, mKate2 reporter",SARS-CoV-2,20 µM,,inhibition,0.135%
CC1CCN(CCCNC(=O)c2cc(Sc3ccc(F)cc3)nc3ccccc23)CC1,SARS-CoV-2,"cytopathic effect, cell-based CPE",USA_WA1/2020,"round 2, 5-point dilution",,efficacy,97.6%
O=[N+]([O-])c1ccc(S(=O)(=O)N2CCN(c3ccnc4cc(Cl)ccc34)CC2)c([N+](=O)[O-])c1,rep main protease,"viral replication, mKate2 reporter",SARS-CoV-2,20 µM,,inhibition,-0.479%
CC[C@H](C)[C@H](NC(=O)[C@@H]1CCCN1C(=O)[C@H](C)NC(=O)[C@@H]1CSSC[C@@H]2NC(=O)[C@H](CC(=O)O)NC(=O)[C@H](CCCNC(=N)N)NC(=O)[C@H](CCC(=O)O)NC(=O)[C@H](CCCNC(=N)N)NC(=O)CNC(=O)[C@H](CC(=O)O)NC(=O)[C@@H]3CSSC[C@H](NC(=O)[C@H](CCC(=O)O)NC(=O)[C@H](CC(C)C)NC(=O)CNC(=O)[C@H](C)NC(=O)[C@H](CSSC[C@H](NC(=O)[C@H](Cc4ccccc4)NC(=O)[C@@H](N)CO)C(=O)N[C@@H](CC(C)C)C(=O)N[C@@H](C(C)C)C(=O)N[C@@H](CCCCN)C(=O)N[C@@H](Cc4c[nH]c5ccccc45)C(=O)N[C@@H](CCCCN)C(=O)N[C@@H](CCC(N)=O)C(=O)N3)NC2=O)C(=O)N[C@@H](Cc2c[nH]c3ccccc23)C(=O)N[C@@H](CCCCN)C(=O)N[C@@H](CCCNC(=N)N)C(=O)N[C@@H](CCCNC(=N)N)C(=O)NCC(=O)N[C@@H](CC(N)=O)C(=O)N[C@@H](CCCCN)C(=O)N[C@@H](CO)C(=O)N[C@@H](CO)C(=O)N[C@@H](C(C)C)C(=O)N1)C(=O)N[C@H](C(=O)O)[C@@H](C)O,"Acid-sensing ion channel 1 (ASIC1, Homo sapiens, UniProt P78348)",outside-out patch clamp,HEK-293T ASIC1a knockout,100 nM,,slow deactivation component fraction,0.61 ± 0.02
CC[C@H](C)[C@H](NC(=O)[C@H](CC(C)C)NC(=O)[C@H](Cc1c[nH]c2ccccc12)NC(=O)[C@H](CCC(N)=O)NC(=O)[C@@H](NC(=O)[C@H](Cc1ccccc1)NC(=O)[C@H](C)NC(=O)[C@H](CCCCNC(=O)COCCOCCNC(=O)COCCOCCNC(=O)CC[C@H](NC(=O)CCCCCCCCCCCCCCCCCCC(=O)O)C(=O)O)NC(=O)[C@H](CCC(N)=O)NC(=O)[C@H](C)NC(=O)[C@@H](NC(=O)[C@H](CCCCN)NC(=O)[C@H](CC(=O)O)NC(=O)[C@H](CC(C)C)NC(=O)C(C)(C)NC(=O)[C@@H](NC(=O)[C@H](CO)NC(=O)[C@H](Cc1ccc(O)cc1)NC(=O)[C@H](CC(=O)O)NC(=O)[C@H](CO)NC(=O)[C@@H](NC(=O)[C@H](Cc1ccccc1)NC(=O)[C@@H](NC(=O)CNC(=O)[C@H](CCC(=O)O)NC(=O)C(C)(C)NC(=O)[C@@H](N)Cc1ccc(O)cc1)[C@@H](C)O)[C@@H](C)O)[C@@H](C)CC)[C@@H](C)CC)C(C)C)C(=O)N[C@@H](C)C(=O)NCC(=O)NCC(=O)N1CCC[C@H]1C(=O)N[C@@H](CO)C(=O)N[C@@H](CO)C(=O)NCC(=O)N[C@@H](C)C(=O)N1CCC[C@H]1C(=O)N1CCC[C@H]1C(=O)N1CCC[C@H]1C(=O)N[C@@H](CO)C(N)=O,,,"human, plasma","subcutaneous, 10.0 mg once weekly, week 15, multiple doses",,AUC(0-168 h),263 µg·h/mL
NC(=O)c1ccc(/C=C/C(=O)N2CCC[C@@]3(CCN(C(=O)[C@@H]4CC(=O)NC(=O)N4)C3)C2)cc1,rep main protease,enzyme activity,,5 µM,,inhibition,15%
Nc1cc(O[C@@H]2CCN(C(=O)c3ccc(S(=O)(=O)F)cc3)C2)ccn1,"Calmodulin-sensitive adenylate cyclase (cya, Bacillus anthracis, UniProt P40136)",,,,,kinact,0.000133 s⁻¹
CC[C@H](C)[C@H](NC(=O)[C@H](CC(C)C)NC(=O)[C@H](Cc1c[nH]c2ccccc12)NC(=O)[C@H](CCC(N)=O)NC(=O)[C@@H](NC(=O)[C@H](Cc1ccccc1)NC(=O)[C@H](C)NC(=O)[C@H](CCCCNC(=O)COCCOCCNC(=O)COCCOCCNC(=O)CC[C@H](NC(=O)CCCCCCCCCCCCCCCCCCC(=O)O)C(=O)O)NC(=O)[C@H](CCC(N)=O)NC(=O)[C@H](C)NC(=O)[C@@H](NC(=O)[C@H](CCCCN)NC(=O)[C@H](CC(=O)O)NC(=O)[C@H](CC(C)C)NC(=O)C(C)(C)NC(=O)[C@@H](NC(=O)[C@H](CO)NC(=O)[C@H](Cc1ccc(O)cc1)NC(=O)[C@H](CC(=O)O)NC(=O)[C@H](CO)NC(=O)[C@@H](NC(=O)[C@H](Cc1ccccc1)NC(=O)[C@@H](NC(=O)CNC(=O)[C@H](CCC(=O)O)NC(=O)C(C)(C)NC(=O)[C@@H](N)Cc1ccc(O)cc1)[C@@H](C)O)[C@@H](C)O)[C@@H](C)CC)[C@@H](C)CC)C(C)C)C(=O)N[C@@H](C)C(=O)NCC(=O)NCC(=O)N1CCC[C@H]1C(=O)N[C@@H](CO)C(=O)N[C@@H](CO)C(=O)NCC(=O)N[C@@H](C)C(=O)N1CCC[C@H]1C(=O)N1CCC[C@H]1C(=O)N1CCC[C@H]1C(=O)N[C@@H](CO)C(N)=O,,,healthy subjects,all MAD doses,,subjects with severe hypoglycaemia,0%
COP(=S)(OC)Oc1ccc([N+](=O)[O-])c(C)c1,rat CYP2C,"tolbutamide hydroxylation, non-competitive inhibitor","rat Sprague-Dawley, liver microsomes","30 min, pH 7.4, added: tolbutamide 1 to 10 mM",,Ki,36.1 ± 12.6 µM
CC(C)=CCC[C@](C)(O[C@@H]1O[C@H](CO)[C@@H](O)[C@H](O)[C@H]1O)[C@H]1CC[C@]2(C)[C@@H]1[C@H](O)C[C@@H]1[C@@]3(C)CC[C@H](O[C@@H]4O[C@H](CO)[C@@H](O)[C@H](O)[C@H]4O)C(C)(C)[C@@H]3CC[C@]12C,Spike glycoprotein,"binding, BLI",,,,koff,0.505 s⁻¹
O.O=C1NC(=O)C(=O)C(=O)N1,rep main protease,"reporter gene (Gaussia luciferase), inhibitor",,20 µM,,inhibition,1.44%
Cc1nc(C)c(CCC(=O)N2C[C@]34CCC[C@@]3(C2)CN(C(=O)[C@@H]2CCC(=O)NC2)C4)c(=O)[nH]1,rep main protease,"enzyme activity, inhibitor",,5 µM,,inhibition,12.8%
Nc1ncnc2c([C@@H]3N[C@H](CO)[C@@H](O)[C@H]3O)c[nH]c12,Sudan ebolavirus,viral replication,"HeLa, Boniface",50 µM,,inhibition,88.9%
O=C(O[C@@H]1O[C@@H]2COC(=O)c3cc(O)c(O)c(O)c3-c3c(cc(O)c(O)c3O)C(=O)O[C@H]([C@H]1O)[C@@H]2O)c1cc(O)c(O)c(O)c1,Spike glycoprotein,"binding, BLI",,,,koff,0.000435 s⁻¹
O=C(NC[C@H](NC(=O)c1cncc2sccc12)c1ccc2ccccc2c1)c1cocn1,rep main protease,enzyme activity,,"5 µM, mean of runs",,inhibition,19.2%
Cn1cnc(Cn2c(=O)[nH]/c(=N\c3cc4cn(C)nc4cc3Cl)n(Cc3cc(F)c(F)cc3F)c2=O)n1,,,"human, all renal function groups","oral, 375 mg, treatment-related dry mouth, Moderate severity",,patients with adverse event,0%
CO[C@H]1C[C@@H]2CC[C@@H](C)[C@@](O)(O2)C(=O)C(=O)N2CCCC[C@H]2C(=O)O[C@H]([C@H](C)C[C@@H]2CC[C@@H](O)[C@H](OC)C2)CC(=O)[C@H](C)/C=C(\C)[C@@H](O)[C@@H](OC)C(=O)[C@H](C)C[C@H](C)/C=C/C=C/C=C/1C,Spike glycoprotein,"binding, BLI",,,,kon,2170 M⁻¹ s⁻¹

# For quick reference, copied from above:
SMILES,target or system,test,test system,conditions,scale,endpoint,result
CC[C@H](C)[C@H](NC(=O)[C@H](CC(C)C)NC(=O)[C@H](Cc1c[nH]c2ccccc12)NC(=O)[C@H](CCC(N)=O)NC(=O)[C@@H](NC(=O)[C@H](Cc1ccccc1)NC(=O)[C@H](C)NC(=O)[C@H](CCCCNC(=O)COCCOCCNC(=O)COCCOCCNC(=O)CC[C@H](NC(=O)CCCCCCCCCCCCCCCCCCC(=O)O)C(=O)O)NC(=O)[C@H](CCC(N)=O)NC(=O)[C@H](C)NC(=O)[C@@H](NC(=O)[C@H](CCCCN)NC(=O)[C@H](CC(=O)O)NC(=O)[C@H](CC(C)C)NC(=O)C(C)(C)NC(=O)[C@@H](NC(=O)[C@H](CO)NC(=O)[C@H](Cc1ccc(O)cc1)NC(=O)[C@H](CC(=O)O)NC(=O)[C@H](CO)NC(=O)[C@@H](NC(=O)[C@H](Cc1ccccc1)NC(=O)[C@@H](NC(=O)CNC(=O)[C@H](CCC(=O)O)NC(=O)C(C)(C)NC(=O)[C@@H](N)Cc1ccc(O)cc1)[C@@H](C)O)[C@@H](C)O)[C@@H](C)CC)[C@@H](C)CC)C(C)C)C(=O)N[C@@H](C)C(=O)NCC(=O)NCC(=O)N1CCC[C@H]1C(=O)N[C@@H](CO)C(=O)N[C@@H](CO)C(=O)NCC(=O)N[C@@H](C)C(=O)N1CCC[C@H]1C(=O)N1CCC[C@H]1C(=O)N1CCC[C@H]1C(=O)N[C@@H](CO)C(N)=O,,,healthy subjects,all MAD doses,,subjects with severe hypoglycaemia,0%
COP(=S)(OC)Oc1ccc([N+](=O)[O-])c(C)c1,rat CYP2C,"tolbutamide hydroxylation, non-competitive inhibitor","rat Sprague-Dawley, liver microsomes","30 min, pH 7.4, added: tolbutamide 1 to 10 mM",,Ki,36.1 ± 12.6 µM
CC(C)=CCC[C@](C)(O[C@@H]1O[C@H](CO)[C@@H](O)[C@H](O)[C@H]1O)[C@H]1CC[C@]2(C)[C@@H]1[C@H](O)C[C@@H]1[C@@]3(C)CC[C@H](O[C@@H]4O[C@H](CO)[C@@H](O)[C@H](O)[C@H]4O)C(C)(C)[C@@H]3CC[C@]12C,Spike glycoprotein,"binding, BLI",,,,koff,0.505 s⁻¹
